Assay results pooled from the literature.
Lines come from different studies, so protocols differ. ± gives the spread as reported.

Substance	cell line	test	setting	EC50 [nM]
COc1ccccc1C(=O)Nc1ccc(N2CCN(c3cccc(C)c3C)CC2)cc1C(=O)O	CHO-K1	cell growth rescue	rescue relative to DFMO alone, added: DFMO at IC50 plus 1 µM spermidine	~20000
CC1(C)CC(=O)C2=C(C1)Nc1cc(C(F)(F)F)ccc1NC2c1ccc(N2CCCCC2)cc1 (centres unmarked)	H4	cytoprotection	added: thapsigargin 7.5 µM	< 20000
O=C(N[C@@H]1CCCc2c1[nH]c1ccc(Cl)cc21)c1ccccn1	Vero	cell growth, MTS	–	12
O=P(O)(O)O[C@@H]1[C@H](O)[C@H](O)[C@@H](OP(=O)(O)O)[C@H](OP(=O)(O)O)[C@H]1O	chicken DT40 wild type	CRAC current, agonist, whole-cell patch clamp	intracellular application, added: cytosolic Ca2+ 150 nM	670
CC1(C)CC(=O)C2=C(C1)Nc1cc(-c3ccccc3)ccc1NC2c1ccc(N2CCCC2)cc1 (centres unmarked)	H4	cytoprotection	added: thapsigargin 7.5 µM	6850 ± 980
insulin icodec	rat primary hepatocytes	glycogen accumulation, agonist	0.1% HSA	69
CC1(C)CC(=O)C2=C(C1)Nc1cc(C(=O)c3ccccc3)ccc1NC2c1ccc(N2CCCCC2)cc1 (centres unmarked)	H4	cytoprotection	added: thapsigargin 7.5 µM	14700 ± 3520
O=c1ccn([C@@H]2O[C@H](COP(=O)(O)OP(=O)(O)OP(=O)(O)OC[C@@H]3O[C@@H](n4ccc(=O)[nH]c4=O)C(O)[C@@H]3O)[C@H](O)C2O)c(=O)[nH]1 (some centres unmarked)	MIN6	intracellular calcium increase, agonist, FLIPR	room temperature	3.2 ± 0.7
CCCCN(CCCC)c1ccc(C2Nc3ccc(Cl)cc3NC3=C2C(=O)CC(C)(C)C3)cc1 (centres unmarked)	H4	cytoprotection	added: thapsigargin 7.5 µM	22200 ± 1550
insulin human	rat primary hepatocytes	glycogen accumulation, agonist	0.1% HSA	0.17
COc1cc([C@@H]2c3cc4c(cc3[C@@H](O[C@@H]3O[C@@H]5CO[C@@H](c6cccs6)O[C@H]5[C@H](O)[C@H]3O)[C@H]3COC(=O)[C@H]23)OCO4)cc(OC)c1O	BJ fibroblasts	cell proliferation	–	29000
C[C@]12CC[C@H]3C(=CC=C4C[C@@H](O)CC[C@@]43C)[C@@H]1CC[C@@H]2C(=O)CO	SK-MEL-188 amelanotic melanoma	cell growth, inhibitor, MTT	48 h	91
CCN(c1ccc(OC)cc1)c1ncnc2occ(C)c12	A10 rat	microtubule depolymerization, immunofluorescence	18 h	53
COc1ccc(C2=N[C@@H](c3ccc(Cl)cc3)[C@@H](c3ccc(Cl)cc3)N2C(=O)N2CCNC(=O)C2)c(OC(C)C)c1	human PBMC	T cell expansion, resazurin	7 days, added: concanavalin A 2 µg/mL	1130
CC1(C)CC(=O)C2=C(C1)Nc1cc(Cl)ccc1NC2c1ccc(N2CCCCC2)cc1 (centres unmarked)	H4	cytoprotection	added: thapsigargin 7.5 µM	27500 ± 3320
CC[C@H](C)[C@H](NC(=O)[C@H](CCC(=O)O)NC(=O)[C@H](CC(=O)O)NC(=O)CNC(=O)[C@H](CC(C)C)NC(=O)[C@H](CCCNC(=N)N)NC(=O)[C@H](CCCNC(=N)N)NC(=O)[C@H](CC(C)C)NC(=O)CNC(=O)[C@H](CCC(N)=O)NC(=O)[C@@H](NC(=O)[C@H](CCSC)NC(=O)[C@H](Cc1c[nH]c2ccccc12)NC(=O)[C@@H](NC(=O)[C@H](CCC(=O)O)NC(=O)[C@@H]1CCCN1C(=O)[C@H](CCCNC(=N)N)NC(C)=O)[C@@H](C)CC)[C@@H](C)O)C(=O)N[C@@H](CC(N)=O)C(=O)N[C@@H](C)C(=O)N[C@@H](Cc1ccc(O)cc1)C(=O)N[C@@H](Cc1ccc(O)cc1)C(=O)N[C@@H](C)C(=O)N[C@@H](CCCNC(=N)N)C(N)=O	Mcl-1-dependent multiple myeloma cells	mitochondrial depolarization, BH3 profiling	–	~3000
Cc1ccc(C)c(NC(=O)c2nnn(-c3cccc(Cl)c3C)c2C)c1	INS1	cell viability, protective, CellTiter-Glo	72 h, added: tunicamycin 0.15 µg/mL	6000 ± 1000
